Measurements pooled from the literature.
Each line is one published result; not all experiments were run side by side. “And” joins repeats or separate records; there may be more than shown. Numbers after ± are the reported error. Values after ≈ are worked out from the molar mass of the structure shown.

With `COC(=O)C1=CO[C@@H](O)[C@@H]2C(CO)=CC[C@H]12` the viability was 71.4 ± 0.5% (SK-N-SH; neuroprotection, MTT; 0.15 µM, 24 h, together with: 250 µM H2O2).
For `NNC(=O)Cn1c2ccccc2c2cn[nH]c(=O)c21`, the fold change was 0.316 (MCF7; RT-PCR, item: PI3K; 5 µM, 48 h, normalised to β-actin; reference: untreated).
`COc1ccc(Cc2c(C)c(C#N)c3[nH]c4ccccc4n3c2=O)cc1` gave an IC50 of over 128 µg/mL (Vero; cell growth or viability).
`Cc1ccc2c(c1)/C(=N/NC(=O)N/N=C1\C(=O)Nc3ccc(C)cc31)C(=O)N2` has an EC50 of over 20 µM (influenza A virus; cytopathic effect, visual CPE score; MDCK, H1N1).
The IC50 of `c1ccc(CCCN2CCN(CCOC(c3ccccc3)c3ccccc3)CC2)cc1` is reported as 25.2 ± 1.4 µM (Pmat, rat; MPP+ uptake; MDCK expressing rat Pmat; 3 min, pH 7.4, 37 °C, together with: 1 µM [3H]MPP+).
`leucinostatin D` gave a GI50 of over 0.1 µM (MDA-MB-231 resistant; sulforhodamine B; 48 h).
`Cc1c(Cc2ccc(C(C)(C)C)cc2)c(=O)n2c([nH]c3ccccc32)c1C#N` has an IC50 of over 64 µg/mL (Vero; cell growth or viability).
For `C#CCN(C)[C@H](C)Cc1ccccc1`, “DAO immunostaining intensity” read “increased” (D-amino acid oxidase; APP/PS1 mouse, GFAP-positive brain areas; oral, 10 mg/kg, 4 weeks).
`Polymyxin B` — result for “endotoxin neutralizing concentration”: 84 ng/mL and < 100 ng/mL (LAL test; human plasma; 60 min, 37 °C, 50% reduction, together with: Pseudomonas aeruginosa LPS 0.5 ng/mL).
For `O=C1C=C(N(Cc2ccc(Cl)nc2)CC(F)F)CO1`, the IC50 was over 1 µg/mL (mAb-19F2 (BALB/c mouse monoclonal antibody); antibody binding, indirect competitive ELISA).
`O=C(N/N=C1\C(=O)Nc2ccccc21)N/N=C1\C(=O)Nc2ccccc21` has an EC50 of over 100 µM (Influenza A virus H3N2; viral replication, MTS; MDCK).
`CP(=O)(O)CCC(N)C(=O)O` (centres unmarked) gave a herbicidal activity of 100% (Setaria faberi; 500 g/ha, 13 days, SETFA, post-emergence spray; reference: untreated (0%), complete kill (100%)).
For `CC(N)C12CC3CC(CC(C3)C1)C2` (centres unmarked), the EC50 was over 200 µM (influenza A virus; cytopathic effect, visual CPE score; MDCK, H1N1).
`leucinostatin B2` gave a GI50 of 0.004 ± 0.0007 µM (MDA-MB-453; sulforhodamine B; 48 h, LAR subtype TNBC).
For `C[C@]12CC[C@H]3[C@@H]([C@H](/C=C/C=C/C=C/[C@@H]4CC5=CC(=O)CC[C@]5(C)[C@H]5CC[C@]6(C)[C@@H](O)CC[C@H]6[C@H]45)CC4=CC(=O)CC[C@@]43C)[C@@H]1CC[C@@H]2O` (relative stereo), “complete growth inhibition” read 0.25 to 0.5 µM (LNCaP; together with: testosterone or dihydrotestosterone).
`CCC(CC)[C@H](NC(C)=O)[C@@H]1[C@H](O)[C@@H](C(=O)O)C[C@H]1N=C(N)N` has an IC50 of 118 µM (influenza virus neuraminidase; enzyme activity, inhibitor, fluorescence; influenza virus).
`CCC(CC)O[C@@H]1C=C(C(=O)O)C[C@H](N)[C@H]1NC(C)=O` gave an EC50 of 0.4 µM (influenza A virus; cytopathic effect, visual CPE score; MDCK, H1N1).
The IC50 of `COC[C@@H](NC(C)=O)C(=O)NCc1ccccc1` is reported as 133 ± 9.8 µM (voltage-gated sodium channel; peak sodium current, inhibitor, whole-cell patch clamp; CAD; 0 mV from -80 mV holding).
Under “minimum concentration for complete inhibition”, `Cc1noc(CC[C@@H](C)[C@H]2CC[C@H]3[C@@H]4[C@@H](O)C[C@@H]5C[C@H](O)CC[C@]5(C)[C@H]4CC[C@]23C)n1` is recorded as 50 µM (Clostridioides difficile; spore germination, OD600; NAP1; 20 min, together with: 2000 µM taurocholate).
Under CD80 expression, `NC12CC3CC(CC(C3)C1)C2` is recorded as “increased” (dendritic cells; flow cytometry; 10 µg/mL, 24 h; reference: untreated cells).
With `O=C(N/N=C1\C(=O)Nc2ccc([N+](=O)[O-])cc21)N/N=C1\C(=O)Nc2ccc([N+](=O)[O-])cc21` the EC50 was 55 ± 26 µM (influenza A virus; cytopathic effect, MTS; MDCK, H1N1).
With `CC1(C)SC2C(NC(=O)C(NC(=O)C3=C(O)C4CCCN4C3=O)c3ccccc3)C(=O)N2C1C(=O)O` (centres unmarked) the MIC was 50 µg/mL (≈ 97.2 µM) (Escherichia coli; broth microdilution; BW25113, Mueller-Hinton broth; together with: 2,2'-bipyridyl 30 µg/mL).
With `C=CC=C[C@@H]1CC2=CC(=O)CC[C@]2(C)[C@H]2CC[C@]3(C)[C@H](O)CC[C@H]3[C@H]12` the IC50 was 16.6 µM (LNCaP; cell growth, MTT; 48 h).
For `O=C1Nc2ccccc2/C1=N/NC(=S)N/N=C1\C(=O)Nc2ccccc21`, the EC50 was 61 ± 32 µM (influenza A virus; cytopathic effect, MTS; MDCK, H1N1).
For `C[C@H](NC(=O)Cc1cc(F)cc(F)c1)C(=O)N[C@H]1N=C(c2ccccc2)c2ccccc2N(C)C1=O`, “half-life of Aβ40 decline” read about 2.3 h (γ-secretase; inhibitor, microdialysis; J20 hAPP transgenic mice, 24 months, hippocampal interstitial fluid; intraperitoneal, 3 mg/kg).
`CNC(C)Cc1ccc2c(c1)OCO2` (racemic) — result for “subjective drug effect rating”: 43.7 (Drug Effects Questionnaire, item: Feel High; human; oral, 1.5 mg/kg, mean over session, unit not given; reference: pre-dose baseline).
The transition enthalpy of `CC(=O)N[C@@H](CC(C)C)C(=O)NCC(=O)N[C@@H](Cc1ccc(O)cc1)C(=O)NCC(=O)N[C@@H](CCCCN)C(N)=O` is reported as 1.5 kcal/mol (DSC; SOPC/cholesterol 7/3 bilayers; 5 mol%, pH 7.40).
For `CCC[C@@H](C(=O)c1ccc2c(c1)OCO2)N1CCCC1`, the IC50 was 0.0066 ± 0.0023 µM (anti-α-PVP/MDPV polyclonal antibody (rat); binding, competitive radioimmunoassay; rat serum, 11 weeks post-immunisation; together with: tritium-labelled drug).
For `CC(C)c1ccc2c(c1)CC[C@H]1[C@](C)(CN)CCC[C@]21C`, the IC50 was 2.41 µM (WM-115; cell growth or viability, MTS; 72 h).
For `O=C1OC(c2ccc(O)c(S(=O)(=O)O)c2)(c2ccc(O)c(S(=O)(=O)O)c2)c2c(Br)c(Br)c(Br)c(Br)c21`, the [3H]pitavastatin accumulation was 0.48 ± 0.13 fold (OATP1B1 and OATP1B3; human sandwich-cultured hepatocytes; 100 µM, 1 h pre-incubation then washout; reference: vehicle).
`O=C1/C(=N\NC(=S)NN=Cc2ccccc2)c2ccccc2N1Cc1ccccc1` has an EC50 of over 100 µM (Influenza A virus H3N2; viral replication, visual CPE score; MDCK).
`CC[C@H](C)[C@H](NC(=O)CNC(=O)[C@H](Cc1c[nH]c2ccccc12)NC(=O)CNC(C)=O)C(=O)N[C@@H](CCCCN)C(N)=O` has a transition enthalpy of 0.7 kcal/mol (DSC; SOPC/cholesterol 7/3 bilayers; 15 mol%, pH 7.40).

Repeated from above:
The IC50 of `c1ccc(CCCN2CCN(CCOC(c3ccccc3)c3ccccc3)CC2)cc1` is reported as 25.2 ± 1.4 µM (Pmat, rat; MPP+ uptake; MDCK expressing rat Pmat; 3 min, pH 7.4, 37 °C, together with: 1 µM [3H]MPP+).
`leucinostatin D` gave a GI50 of over 0.1 µM (MDA-MB-231 resistant; sulforhodamine B; 48 h).
`Cc1c(Cc2ccc(C(C)(C)C)cc2)c(=O)n2c([nH]c3ccccc32)c1C#N` has an IC50 of over 64 µg/mL (Vero; cell growth or viability).
For `C#CCN(C)[C@H](C)Cc1ccccc1`, “DAO immunostaining intensity” read “increased” (D-amino acid oxidase; APP/PS1 mouse, GFAP-positive brain areas; oral, 10 mg/kg, 4 weeks).
